Measured values pooled from the literature.
Numbered parts are unrelated; each lists some results of a single study. Substitutions count along the parent as printed.

Block 1
Target: Histone acetyltransferase KAT6A, winged helix 2, GST fusion (KAT6A, Homo sapiens, UniProt Q92794, residues 85-181)
Method: protein binding microarray
Molecule type: double-stranded DNA, one strand shown
Medium: in vitro
Tested at: not given
Notes: 8-mer, flanks averaged, mean of 2 arrays, mostly near background
Reference: not given
Direction: higher = stronger binding
Target sequence (chain): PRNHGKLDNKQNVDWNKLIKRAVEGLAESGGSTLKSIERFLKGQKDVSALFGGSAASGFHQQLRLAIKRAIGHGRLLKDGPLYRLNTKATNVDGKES
With `CCCGGGCC` the E-score was 0.236.
The E-score of `GAACGGCC` is reported as 0.0275.
`CTATTAAG` gave an E-score of 0.00975.
`GCATAGCC` has an E-score of -0.123.
`CTTCGAAC` gave an E-score of 0.173.
`ACACAAGT` gave an E-score of -0.184.
The E-score of `GCCAGAGC` is reported as 0.0465.
`GAAAAGCA` gave an E-score of 0.0341.
The E-score of `CAGCAGGA` is reported as 0.0742.
`CAATACCC` has an E-score of -0.0802.
`AATCTCGT` has an E-score of 0.0331.
The E-score of `ACTTAAGA` is reported as -0.013.
With `AGCCGGCT` the E-score was 0.101.
The E-score of `AGCTTATA` is reported as -0.158.
`GCTCACAA` gave an E-score of 0.156.
`GTCTTCAC` gave an E-score of 0.0667.
`ATTTTTTA` has an E-score of 0.122.
`ACATGGGC` has an E-score of -0.0192.
`AGCTAATG` has an E-score of -0.0446.
For `TACAAGCA`, the E-score was -0.046.
`ACGGGACT` has an E-score of -0.107.
`AGTCTTGC` gave an E-score of -0.0444.
The E-score of `CAGCTATG` is reported as 0.00754.
`CCGCCAAC` has an E-score of 0.135.

Block 2
Target: Centromere-binding protein 1, full length, N-terminal tag (CBF1, Saccharomyces cerevisiae, UniProt P17106, residues 1-351)
Sequence of UniProt P17106 (whole entry, looked up): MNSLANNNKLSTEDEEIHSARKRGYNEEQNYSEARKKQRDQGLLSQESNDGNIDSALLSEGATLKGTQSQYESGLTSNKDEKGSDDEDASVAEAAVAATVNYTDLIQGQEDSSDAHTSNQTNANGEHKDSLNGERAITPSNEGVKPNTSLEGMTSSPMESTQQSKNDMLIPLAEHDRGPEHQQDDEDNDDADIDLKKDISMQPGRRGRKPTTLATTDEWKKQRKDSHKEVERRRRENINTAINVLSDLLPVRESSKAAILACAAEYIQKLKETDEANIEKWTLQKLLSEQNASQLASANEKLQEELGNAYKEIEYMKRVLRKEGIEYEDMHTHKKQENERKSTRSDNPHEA
Method: protein-binding microarray
Molecule type: double-stranded DNA, one strand shown
Medium: in vitro
Tested at: 0.8 µM
Notes: whole 60-bp probe, no competitor
Direction: higher = stronger binding
`TGTACGAAGCTATCACAGGTGACTATAGTAGTTAGGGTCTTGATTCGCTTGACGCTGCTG` gave a fluorescence intensity of 740 a.u.
`GAATGTCAATCACTTCACGGGACCAGTAACTCATAGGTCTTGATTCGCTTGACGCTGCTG` has a fluorescence intensity of 1200 a.u.
For `GAATAGTATATACGGCACGGGATATGGCATCTGTAGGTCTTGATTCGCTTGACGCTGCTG`, the fluorescence intensity was 865 a.u.
For `GAAATGAATGCGGCAGTGGTGATGAAGGAGATATAGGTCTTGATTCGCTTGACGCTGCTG`, the fluorescence intensity was 548 a.u.
The fluorescence intensity of `CTAAGGAGAAATGATGGTGATATTAATATGCAGTTCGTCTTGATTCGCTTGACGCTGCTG` is reported as 511 a.u.
`TGTACGAAGCTATATCAGGAGAATATAGTAGTTAGGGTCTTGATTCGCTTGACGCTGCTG` has a fluorescence intensity of 532 a.u.
`CTATGCCGAACAAATCACGGCATAACCTGCAGATTCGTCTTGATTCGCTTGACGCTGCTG` has a fluorescence intensity of 519 a.u.
`CCTAACTACTATAGTTCCGTGAGATAGCTTCGTACAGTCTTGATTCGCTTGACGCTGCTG` has a fluorescence intensity of 482 a.u.
`GAATGCATTACTACTCACGCATCCTATCACATATAGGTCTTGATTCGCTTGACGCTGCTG` gave a fluorescence intensity of 582 a.u.
With `CTATGCACAGTGACTCACGAGTTTTTGTTTTCTTTCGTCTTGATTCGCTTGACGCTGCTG` the fluorescence intensity was 600 a.u.
With `CTACTGTTATTTGATCTGGTGATGAGTTCTGCCTTCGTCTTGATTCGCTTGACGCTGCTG` the fluorescence intensity was 670 a.u.
For `CCTAACTACTATAAAATGGTGACATAGCTTCGTACAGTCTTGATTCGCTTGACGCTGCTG`, the fluorescence intensity was 537 a.u.
For `CTAGGGGACTGACATCAGGTCAACATTATTATTTTCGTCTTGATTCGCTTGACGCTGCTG`, the fluorescence intensity was 511 a.u.
`CTATACCGAACATGTCACCTTGCATACCAACACTTCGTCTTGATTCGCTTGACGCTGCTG` has a fluorescence intensity of 542 a.u.
`CTAGTAATCTCGAATCACATGGTACCTCTTTCTTTCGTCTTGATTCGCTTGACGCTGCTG` has a fluorescence intensity of 2430 a.u.
`CTAAGAGGTTATAGTCACGTGATGCAGATTACCTTCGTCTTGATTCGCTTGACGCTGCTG` gave a fluorescence intensity of 43100 a.u.

Block 3
Target: RNA binding protein fox-1 homolog 2, RRM domain, GST-SBP tag (RBFOX2, Homo sapiens, UniProt O43251-10, residues 100-194)
Method: RNA Bind-n-Seq
Molecule type: RNA
Medium: in vitro
Tested at: 365 nM
Notes: natural RNA segment, single round, ends assumed
Reference: no-protein control
Direction: higher = stronger binding
Target sequence (chain): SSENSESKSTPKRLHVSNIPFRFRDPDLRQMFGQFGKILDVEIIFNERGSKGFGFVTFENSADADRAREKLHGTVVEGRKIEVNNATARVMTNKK
Under “RBNS enrichment (R)”, `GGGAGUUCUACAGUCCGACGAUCAGUGAUUAUAACCAGUUACAACCUGUAUUUCUUUUUGCAGCCAGCACAGUGUGAACCAACUCAGACUUUGAGAGAAAAAGAAUGCAGGAGUGGAAUAACCAAGUCAAAAAUGGAAUUCUCGGGUGCCAA` is recorded as 0.278.
Under “RBNS enrichment (R)”, `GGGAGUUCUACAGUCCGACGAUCAGUCAGGCUGUGGGCAAGUUCCUGACCACAGGGAGUAAAUUGGCCUCUUUGAUACACUUUUGCUUGCCUCCCCAGGAAAGAAGGAAUUGCAUCCAAGGUAUACAUACAUAUGGAAUUCUCGGGUGCCAA` is recorded as 0.318.
`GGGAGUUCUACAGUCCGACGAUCAGACCUCGGAAAGAUGCCCCUGUUCCUUUGUUGCGGGUGGUUUUGGUAAGGCAGAGCCCUCUGCUGAGAAUGUAGUAUUGUUUUUCCCCUCUCCCUCCUGCUUUCUUUUUUGGAAUUCUCGGGUGCCAA`: “RBNS enrichment (R)” 1.37.
`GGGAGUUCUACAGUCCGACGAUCGAGCAGCUCGCUGGCCAGAAGGGGAUGGGGGCAUCCCUGUGCCUCACUCAGCUCCUGCUGCUCUUAGGGAAAGGAGGCCUGGGUCAAGCCAGCAUCCCCUUGGUAAAGACUGGAAUUCUCGGGUGCCAA`: “RBNS enrichment (R)” 0.454.
`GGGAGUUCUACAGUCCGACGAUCGGUGGCCUGAGUUGUUUAUGUUGGCAGAAGGUUGACAUUGGAUGCUCGAUUGCUUCAGCCUCACCGGGGCAUUGAAUCAUCAUUUGUUGAAUGGCAACAGGUUUGCUGGGUGGAAUUCUCGGGUGCCAA`: “RBNS enrichment (R)” 1.85.
`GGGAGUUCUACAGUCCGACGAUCUCCACUCUCCUCCUCUUUUUGAUACCCACCCUCACUAGCUGCCUCCAGCUCUGGAGUGGGGUGCUAUUCUGGCAGUAUCUGGAACUUGGCCUACAGCUUCCUCUGCAGGGUGGAAUUCUCGGGUGCCAA` — result for “RBNS enrichment (R)”: 0.387.
`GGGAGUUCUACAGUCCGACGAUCCAGUGUCUCAGAACUGAAUAACUGCAGUGACUUGAUGCUCUAAAACAGUGUAGGAUUUAAGAAUAGAUGGUUUUUAAUCCUGGAAAUUGUGAUUGUGACCCAUGAGUGGAUGGAAUUCUCGGGUGCCAA`: “RBNS enrichment (R)” 0.518.
`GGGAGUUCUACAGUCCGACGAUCCUCAGACAAGCUAAUCAUGGUGCGACUCUCUCCCUUCCUCAUCCACCUCUUUGGGGACAAGAGGAUUACAUCUCAGGCCAGCAAGAUCAGCUGCUUGAAGCUCUGUGUAAUGGAAUUCUCGGGUGCCAA` — result for “RBNS enrichment (R)”: 0.433.

Block 4
Target: CCNB1, cyclin fold, Cln2 fusion (human)
Method: yeast growth competition, sequencing
Medium: yeast
Notes: weak parent motif
Reference: not given
Direction: higher = stronger binding
Starting sequence: RB1 docking peptide (human); PKPLKKLRFDIEG
`I11E`: “normalised enrichment score” 0.528.
`F9Y`: “normalised enrichment score” 0.169.
For `F9A`, “normalised enrichment score” read 0.228.
For `P1L`, “normalised enrichment score” read -0.316.
Under “normalised enrichment score”, `K6C` is recorded as 0.912.
Under “normalised enrichment score”, `D10G` is recorded as 1.67.
Under “normalised enrichment score”, `K5G` is recorded as 0.461.
`D10Y` — result for “normalised enrichment score”: -0.246.
`P1Q` — result for “normalised enrichment score”: 0.429.
`G13V` — result for “normalised enrichment score”: -0.418.
For `P3E`, “normalised enrichment score” read 0.629.
For `D10F`, “normalised enrichment score” read 0.203.
Under “normalised enrichment score”, `P3W` is recorded as 1.07.
Under “normalised enrichment score”, `L4M` is recorded as 1.1.
Under “normalised enrichment score”, `F9R` is recorded as 0.289.
For `R8W`, “normalised enrichment score” read 0.379.

Some of these lines once more (block 4):
Under “normalised enrichment score”, `L4M` is recorded as 1.1.
For `D10F`, “normalised enrichment score” read 0.203.
Under “normalised enrichment score”, `K6C` is recorded as 0.912.
Under “normalised enrichment score”, `D10G` is recorded as 1.67.
Under “normalised enrichment score”, `P3W` is recorded as 1.07.
